Experimental data collected from several papers.
pEC50, pIC50: −log10 of the molar value.
Cell line: BT-20

For `CC(C)=CC1OC(C)(C)C2C=C3C(=O)C(Cl)=CC(O)C3C3C(O)C4OC4C(=O)C132` (centres unmarked), the pIC50 was 5.04 (cell growth or viability, MTS).
With `CC1(C)[C@H](NC(=O)c2cnn(CCO)c2)C(C)(C)[C@H]1Oc1ccc(C#N)c(Cl)c1` the pIC50 was under 5.00 (cell growth or viability; 7 days).
The pIC50 of `CC(C)c1ccc(N(C)c2ccc3c(c2)OCC[C@H]3CNc2cnccc2C(=O)O)cc1` is reported as at most 5.00 (cell growth or viability, ATP luminescence; 7 days).
`Cc1cc([C@H](C(=O)N2C[C@H](O)C[C@H]2C(=O)N[C@@H](CC(=O)N2CCC(N3CCC(C#Cc4ccc(C(=O)N[C@H]5C(C)(C)[C@H](Oc6ccc(C#N)c(Cl)c6)C5(C)C)cc4)CC3)CC2)c2ccc(-c3scnc3C)cc2)C(C)C)on1` gave a pIC50 of under 5.00 (cell growth or viability; 7 days).
`CCN(C(=O)c1cc(F)ccc1Oc1nncnc1N1CCC2(C1)CN([C@H](CCCN(C)CCOC)C(C)C)C2)C(C)C` gave a GI50 of over 10 µM (cell growth or viability; 7 days).
`Cc1cc(C)nc(NC(=S)N2CCN(c3ccncc3)CC2)c1` has a pEC50 of under 4.00 (cell viability, CellTiter-Glo; 4 days).
The pIC50 of `CNS(=O)(=O)Nc1nccc(Cc2c(C)c3ccc(Oc4ncccc4F)cc3oc2=O)c1F` is reported as under 6.00 (cell viability; 7 days).
The pIC50 of `COC(=O)N1c2ccc3c(nc(Cc4ccccc4)n3[C@@H]3CCC[C@@H](C(=O)O)C3)c2CC[C@@H]1C` is reported as 5.02 (cell growth or viability, ATP luminescence; 10 days).

Some of these lines once more:
The pIC50 of `CC(C)c1ccc(N(C)c2ccc3c(c2)OCC[C@H]3CNc2cnccc2C(=O)O)cc1` is reported as at most 5.00 (cell growth or viability, ATP luminescence; 7 days).
